{"data": "Measurements pooled from the literature", "note": "Every numbered part comes from another study and shows a few of its results, in no order.", "sequence of UniProt P10721 (whole entry, unmodified, looked up)": "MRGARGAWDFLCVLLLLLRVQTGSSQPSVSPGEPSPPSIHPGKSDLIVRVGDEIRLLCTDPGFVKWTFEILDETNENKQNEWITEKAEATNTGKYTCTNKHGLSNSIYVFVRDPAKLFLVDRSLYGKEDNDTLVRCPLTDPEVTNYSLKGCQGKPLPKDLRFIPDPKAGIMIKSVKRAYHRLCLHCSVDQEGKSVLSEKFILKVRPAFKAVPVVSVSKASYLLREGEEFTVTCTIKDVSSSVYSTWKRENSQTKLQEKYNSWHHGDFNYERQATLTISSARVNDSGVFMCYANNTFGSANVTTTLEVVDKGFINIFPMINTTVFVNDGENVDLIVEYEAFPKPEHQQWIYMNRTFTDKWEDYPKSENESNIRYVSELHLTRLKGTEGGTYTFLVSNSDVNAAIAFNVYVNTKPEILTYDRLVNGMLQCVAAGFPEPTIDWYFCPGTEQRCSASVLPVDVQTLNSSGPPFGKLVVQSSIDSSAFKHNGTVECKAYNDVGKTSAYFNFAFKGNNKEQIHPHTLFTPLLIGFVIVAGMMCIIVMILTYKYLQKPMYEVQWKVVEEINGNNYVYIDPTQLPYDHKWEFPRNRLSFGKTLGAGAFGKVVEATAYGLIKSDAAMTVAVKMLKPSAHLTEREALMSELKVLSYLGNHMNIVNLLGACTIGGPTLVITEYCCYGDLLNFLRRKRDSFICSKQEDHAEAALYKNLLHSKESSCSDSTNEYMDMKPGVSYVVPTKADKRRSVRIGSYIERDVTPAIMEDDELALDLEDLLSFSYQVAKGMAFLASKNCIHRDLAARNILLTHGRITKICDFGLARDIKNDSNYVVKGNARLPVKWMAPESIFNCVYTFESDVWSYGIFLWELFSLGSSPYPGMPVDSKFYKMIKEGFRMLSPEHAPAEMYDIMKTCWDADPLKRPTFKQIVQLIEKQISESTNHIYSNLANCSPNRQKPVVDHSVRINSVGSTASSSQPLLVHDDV"}
{"data": "Block 1", "Compound": "CN(C)C(=O)Cn1cc(-c2nc([C@@](C)(c3ccc(-c4cnc(N)nc4)cc3)C3CC3)no2)cn1", "method": "competition with immobilised ligand", "concentration": "1 µM"}
{"target": "DCLK1 (Homo sapiens, UniProt O15075)", "read-out": "cell-free assay", "remaining binding": "71%"}
{"target": "PLK4 (Homo sapiens, UniProt O00444)", "read-out": "cell-free assay", "remaining binding": "74%"}
{"target": "FGR (Homo sapiens, UniProt P09769)", "read-out": "cell-free assay", "remaining binding": "100%"}
{"target": "STK32B (Homo sapiens, UniProt Q9NY57)", "read-out": "cell-free assay", "remaining binding": "100%"}
{"target": "STK17A (Homo sapiens, UniProt Q9UEE5)", "read-out": "cell-free assay", "remaining binding": "100%"}
{"target": "PIP5K1C (Homo sapiens, UniProt O60331)", "read-out": "cell-free assay", "remaining binding": "100%"}
{"target": "FLT3 (Homo sapiens, UniProt P36888, F691L/ITD)", "read-out": "cell-free assay", "remaining binding": "100%"}
{"target": "RIOK1 (Homo sapiens, UniProt Q9BRS2)", "read-out": "cell-free assay", "remaining binding": "100%"}
{"target": "TESK1 (Homo sapiens, UniProt Q15569)", "read-out": "cell-free assay", "remaining binding": "90%"}
{"target": "CSNK1G3 (Homo sapiens, UniProt Q9Y6M4)", "read-out": "cell-free assay", "remaining binding": "95%"}
{"target": "ALK (Homo sapiens, UniProt Q9UM73, L1196M)", "read-out": "cell-free assay", "remaining binding": "90%"}
{"target": "PRKAA1 (Homo sapiens, UniProt Q13131)", "read-out": "cell-free assay", "remaining binding": "95%"}
{"target": "MAP3K20 (Homo sapiens, UniProt Q9NYL2)", "read-out": "cell-free assay", "remaining binding": "80%"}
{"target": "CHEK2 (Homo sapiens, UniProt O96017)", "read-out": "cell-free assay", "remaining binding": "100%"}
{"target": "FRK (Homo sapiens, UniProt P42685)", "read-out": "cell-free assay", "remaining binding": "90%"}
{"target": "COQ8A (Homo sapiens, UniProt Q8NI60)", "read-out": "cell-free assay", "remaining binding": "100%"}
{"target": "TLK2 (Homo sapiens, UniProt Q86UE8)", "read-out": "cell-free assay", "remaining binding": "100%"}
{"target": "ULK2 (Homo sapiens, UniProt Q8IYT8)", "read-out": "cell-free assay", "remaining binding": "100%"}
{"target": "Insulin receptor (INSR, Homo sapiens, UniProt P06213)", "read-out": "cell-free assay", "remaining binding": "89%"}
{"target": "KIT (Homo sapiens, UniProt P10721, V559D)", "read-out": "cell-free assay", "remaining binding": "91%"}
{"target": "SLK (Homo sapiens, UniProt Q9H2G2)", "read-out": "cell-free assay", "remaining binding": "94%"}
{"target": "PIP4K2C (Homo sapiens, UniProt Q8TBX8)", "read-out": "cell-free assay", "remaining binding": "100%"}
{"target": "ACVRL1 (Homo sapiens, UniProt P37023)", "read-out": "binding", "remaining binding": "84%"}
{"target": "Mast/stem cell growth factor receptor Kit, autoinhibited (KIT, Homo sapiens, UniProt P10721)", "read-out": "cell-free assay", "remaining binding": "86%"}
{"target": "IKBKB (Homo sapiens, UniProt O14920)", "read-out": "cell-free assay", "remaining binding": "100%"}
{"data": "Block 2", "target": "DNA polymerase theta, helicase domain (POLQ, Homo sapiens, UniProt O75417)", "read-out": "ATPase activity", "concentration": "concentration not given", "setting": "with minus without ssDNA", "sequence of UniProt O75417 (whole entry, looked up)": "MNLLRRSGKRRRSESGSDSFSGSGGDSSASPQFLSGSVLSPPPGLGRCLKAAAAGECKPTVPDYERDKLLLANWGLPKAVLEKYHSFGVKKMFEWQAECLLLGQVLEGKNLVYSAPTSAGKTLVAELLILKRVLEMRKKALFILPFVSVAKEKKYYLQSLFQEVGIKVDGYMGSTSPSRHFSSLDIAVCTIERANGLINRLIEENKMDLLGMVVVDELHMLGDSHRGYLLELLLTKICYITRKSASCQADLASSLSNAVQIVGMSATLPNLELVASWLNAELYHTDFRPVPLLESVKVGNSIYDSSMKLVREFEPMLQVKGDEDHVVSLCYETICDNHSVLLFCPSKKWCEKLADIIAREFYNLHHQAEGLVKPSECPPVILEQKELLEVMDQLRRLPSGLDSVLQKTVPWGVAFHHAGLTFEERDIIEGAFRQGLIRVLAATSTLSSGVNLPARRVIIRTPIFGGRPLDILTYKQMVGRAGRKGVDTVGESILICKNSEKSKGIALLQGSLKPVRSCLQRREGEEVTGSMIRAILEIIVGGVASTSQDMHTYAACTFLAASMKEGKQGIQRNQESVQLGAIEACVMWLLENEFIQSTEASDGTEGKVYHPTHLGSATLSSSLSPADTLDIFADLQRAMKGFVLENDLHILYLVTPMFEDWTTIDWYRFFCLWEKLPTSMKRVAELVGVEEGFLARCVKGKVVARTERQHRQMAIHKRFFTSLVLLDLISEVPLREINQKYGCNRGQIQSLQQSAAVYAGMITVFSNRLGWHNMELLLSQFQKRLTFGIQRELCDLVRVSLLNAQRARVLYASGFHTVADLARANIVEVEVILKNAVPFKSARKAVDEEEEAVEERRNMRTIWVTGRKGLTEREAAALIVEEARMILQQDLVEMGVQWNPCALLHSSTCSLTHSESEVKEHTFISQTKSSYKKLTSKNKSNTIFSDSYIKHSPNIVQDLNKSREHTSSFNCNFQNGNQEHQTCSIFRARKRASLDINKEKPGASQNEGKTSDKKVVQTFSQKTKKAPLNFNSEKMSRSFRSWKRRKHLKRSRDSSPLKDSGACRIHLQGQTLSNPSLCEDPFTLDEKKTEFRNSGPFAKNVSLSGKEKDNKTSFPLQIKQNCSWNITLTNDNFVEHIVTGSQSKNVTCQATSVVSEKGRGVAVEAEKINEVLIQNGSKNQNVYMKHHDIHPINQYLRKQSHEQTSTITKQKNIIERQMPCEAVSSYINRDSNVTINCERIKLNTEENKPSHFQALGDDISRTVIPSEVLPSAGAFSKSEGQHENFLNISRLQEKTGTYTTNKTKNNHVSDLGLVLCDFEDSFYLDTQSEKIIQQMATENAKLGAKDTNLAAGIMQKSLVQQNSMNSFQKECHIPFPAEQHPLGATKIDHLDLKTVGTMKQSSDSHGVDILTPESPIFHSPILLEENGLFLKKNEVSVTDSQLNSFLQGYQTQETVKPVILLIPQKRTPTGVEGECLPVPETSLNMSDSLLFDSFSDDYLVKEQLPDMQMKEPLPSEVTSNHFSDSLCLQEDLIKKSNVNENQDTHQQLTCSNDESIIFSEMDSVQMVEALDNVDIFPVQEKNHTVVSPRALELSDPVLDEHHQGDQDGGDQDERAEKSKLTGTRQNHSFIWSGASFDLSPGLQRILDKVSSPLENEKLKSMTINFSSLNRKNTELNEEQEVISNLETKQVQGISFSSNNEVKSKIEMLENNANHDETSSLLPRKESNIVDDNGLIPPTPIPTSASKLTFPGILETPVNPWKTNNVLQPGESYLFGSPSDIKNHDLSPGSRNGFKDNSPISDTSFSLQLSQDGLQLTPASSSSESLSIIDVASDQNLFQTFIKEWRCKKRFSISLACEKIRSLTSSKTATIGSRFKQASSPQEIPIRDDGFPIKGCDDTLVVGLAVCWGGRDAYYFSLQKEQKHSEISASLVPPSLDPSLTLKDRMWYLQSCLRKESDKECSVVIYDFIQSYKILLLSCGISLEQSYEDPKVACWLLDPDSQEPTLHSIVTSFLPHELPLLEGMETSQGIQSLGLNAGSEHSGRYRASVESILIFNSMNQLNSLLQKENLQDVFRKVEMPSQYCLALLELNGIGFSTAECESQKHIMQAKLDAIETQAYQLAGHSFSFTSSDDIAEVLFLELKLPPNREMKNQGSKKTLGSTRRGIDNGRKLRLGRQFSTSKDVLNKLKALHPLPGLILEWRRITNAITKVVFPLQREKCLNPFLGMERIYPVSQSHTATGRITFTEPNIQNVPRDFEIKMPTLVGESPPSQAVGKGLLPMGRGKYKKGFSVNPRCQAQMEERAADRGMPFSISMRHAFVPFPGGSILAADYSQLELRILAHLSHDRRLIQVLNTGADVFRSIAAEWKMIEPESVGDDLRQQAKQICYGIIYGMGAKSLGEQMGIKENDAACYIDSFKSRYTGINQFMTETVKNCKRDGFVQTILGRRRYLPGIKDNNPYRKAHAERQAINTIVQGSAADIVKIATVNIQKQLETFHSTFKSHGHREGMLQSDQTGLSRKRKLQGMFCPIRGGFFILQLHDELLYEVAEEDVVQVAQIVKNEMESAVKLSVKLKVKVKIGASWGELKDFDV"}
{"Structure (SMILES)": "O=C(Nc1ccccc1C(=O)O)c1cccc(S(=O)(=O)N2CCCC2)c1", "activity difference [%]": 1.74}
{"Structure (SMILES)": "O=C(Nc1noc2ccccc12)c1ccc(F)cc1", "activity difference [%]": 4.19}
{"Structure (SMILES)": "CC1=Nc2cc(C(=O)NCCc3ccc(Cl)cc3)ccc2Sc2ccc(C)cc21", "activity difference [%]": 2.38}
{"Structure (SMILES)": "Cc1ccc(C(=O)c2cc(O)c(O)c([N+](=O)[O-])c2)cc1", "activity difference [%]": 8.38}
{"Structure (SMILES)": "Cc1ccc(C(=O)Nc2ccc(S(=O)(=O)[O-])c3cc(S(=O)(=O)[O-])cc(S(=O)(=O)[O-])c23)cc1NC(=O)c1cccc(NC(=O)Nc2cccc(C(=O)Nc3cc(C(=O)Nc4ccc(S(=O)(=O)[O-])c5cc(S(=O)(=O)[O-])cc(S(=O)(=O)[O-])c45)ccc3C)c2)c1.[Na+].[Na+].[Na+].[Na+].[Na+].[Na+]", "activity difference [%]": 11.9}
{"Structure (SMILES)": "O=C(CSc1ncc(S(=O)(=O)c2ccc(Br)cc2)c(=O)[nH]1)NCc1ccc(Cl)cc1", "activity difference [%]": 11.9}
{"Structure (SMILES)": "O=C(Nc1ccccc1F)c1ccc2c(Cl)c3c(nc2c1)CCC3", "activity difference [%]": 4.23}
{"Structure (SMILES)": "Cc1ccc(-c2n[nH]c3c2C(c2cccc(O)c2)N(c2ccc(C(=O)O)cc2)C3=O)cc1 (stereo not shown)", "activity difference [%]": 5.61}
{"data": "Block 3", "Compound": "Cn1cnc2cc3c(Nc4cccc(Br)c4)ncnc3cc21", "read-out": "enzyme activity", "mode": "inhibitor", "concentration": "0.5 µM", "reference": "control"}
{"target": "NUAK1 (Homo sapiens, UniProt O60285)", "remaining activity [%]": 90.5}
{"target": "SRPK3 (Homo sapiens, UniProt Q9UPE1)", "remaining activity [%]": 94.9}
{"target": "GSK3A (Homo sapiens, UniProt P49840)", "remaining activity [%]": 100}
{"target": "BMX (Homo sapiens, UniProt P51813)", "remaining activity [%]": 96.6}
{"target": "PAK2 (Homo sapiens, UniProt Q13177)", "remaining activity [%]": 99.8}
{"target": "PIM2 (Homo sapiens, UniProt Q9P1W9)", "remaining activity [%]": 113}
{"target": "RPS6KA1 (Homo sapiens, UniProt Q15418)", "remaining activity [%]": 103}
{"target": "PRKCG (Homo sapiens, UniProt P05129)", "remaining activity [%]": 93.9}
{"target": "EPHA7 (Homo sapiens, UniProt Q15375)", "remaining activity [%]": 72}
{"target": "CSK (Homo sapiens, UniProt P41240)", "remaining activity [%]": 88.1}
{"target": "GRK2 (Homo sapiens, UniProt P25098)", "remaining activity [%]": 100}
{"target": "FLT3 (Homo sapiens, UniProt P36888)", "remaining activity [%]": 33.4}
{"target": "SGK1 (Homo sapiens, UniProt O00141)", "remaining activity [%]": 115}
{"target": "PRKCE (Homo sapiens, UniProt Q02156)", "remaining activity [%]": 87.8}
{"target": "GRK6 (Homo sapiens, UniProt P43250)", "remaining activity [%]": 107}
{"target": "MYLK (Homo sapiens, UniProt Q15746)", "remaining activity [%]": 83.3}
{"target": "RPS6KB1 (Homo sapiens, UniProt P23443)", "remaining activity [%]": 100}
{"target": "EPHB2 (Homo sapiens, UniProt P29323)", "remaining activity [%]": 76.2}
{"target": "Aurora kinase C (AURKC, Homo sapiens, UniProt Q9UQB9)", "remaining activity [%]": 96.5}
{"target": "CSF1R (Homo sapiens, UniProt P07333)", "remaining activity [%]": 94.4}
{"target": "FGFR4 (Homo sapiens, UniProt P22455)", "remaining activity [%]": 94.1}
{"data": "Block 4", "target": "Beta-1 adrenergic receptor (ADRB1, Homo sapiens, UniProt P08588)", "mode": "antagonist", "sequence of UniProt P08588 (whole entry, looked up)": "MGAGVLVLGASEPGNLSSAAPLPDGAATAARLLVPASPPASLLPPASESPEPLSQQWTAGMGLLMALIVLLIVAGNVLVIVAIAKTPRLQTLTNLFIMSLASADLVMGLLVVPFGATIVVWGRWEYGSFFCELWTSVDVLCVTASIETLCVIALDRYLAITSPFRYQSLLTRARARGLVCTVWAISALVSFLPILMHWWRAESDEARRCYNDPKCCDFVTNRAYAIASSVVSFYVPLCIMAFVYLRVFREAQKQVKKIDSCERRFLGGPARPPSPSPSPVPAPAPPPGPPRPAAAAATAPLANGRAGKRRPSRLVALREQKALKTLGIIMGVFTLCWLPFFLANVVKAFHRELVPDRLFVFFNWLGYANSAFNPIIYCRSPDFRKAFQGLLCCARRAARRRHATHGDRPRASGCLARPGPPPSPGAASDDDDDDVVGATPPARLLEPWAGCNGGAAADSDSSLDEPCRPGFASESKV"}
{"Structure (SMILES)": "Cc1nc(-c2ccccc2)ccc1C(=O)NC1CCc2[nH]ncc2C1 (stereo not shown)", "IC50 [µM]": "≥ 100"}
{"Structure (SMILES)": "Cc1noc2c(-c3cnn(C)c3)cc(-c3cccnc3)nc12", "IC50 [µM]": "≥ 100"}
{"Structure (SMILES)": "Fc1ccc(-c2ccc3ncc(Nc4ccnc(N5CCOCC5)c4)n3n2)cc1", "IC50 [µM]": "≥ 100"}
{"Structure (SMILES)": "COc1cc(O)c2c3c(c(O)cc(C)c13)C(=O)OC2", "IC50 [µM]": "≥ 100"}
{"Structure (SMILES)": "COc1cc(CNCC2CCOCC2)ccc1OCC(O)CN(C)C1CCCCC1 (stereo not shown)", "IC50 [µM]": "≥ 100"}
{"Structure (SMILES)": "COc1ccc(F)cc1-c1ncc2c(n1)OCCN(c1cccc(C(F)(F)F)c1)C2=O", "IC50 [µM]": "≥ 100"}
{"Structure (SMILES)": "CN(Cc1cnn(C)c1)Cc1ccccc1OCC(O)CN1CCCCC1 (stereo not shown)", "IC50 [µM]": "≥ 100"}
{"Structure (SMILES)": "O=C(Nc1cnc2ccccc2c1)c1cn(-c2ccccc2C(F)(F)F)nn1", "IC50 [µM]": "≥ 100"}
{"Structure (SMILES)": "Cc1cc2ncn(CC(O)COc3ccc4ccccc4c3)c2cc1C (stereo not shown)", "IC50 [µM]": "≥ 100"}
{"Structure (SMILES)": "COc1ccccc1CN1C(=O)COC[C@@H]1[C@H](O)c1ccc(NC(=O)CCc2ccccc2)cc1", "IC50 [µM]": "≥ 100"}
{"Structure (SMILES)": "CC(Cc1ccccc1)NN (stereo not shown)", "IC50 [µM]": "≥ 100"}
{"Structure (SMILES)": "O=C1COc2ccc(-c3ccoc3)nc2CN1", "IC50 [µM]": "≥ 100"}
{"Structure (SMILES)": "Cc1cccc(NC(=O)c2sc3nc(-c4cc5ccc(O)cc5oc4=O)[nH]c(=O)c3c2C)c1", "IC50 [µM]": "≥ 100"}
{"Structure (SMILES)": "COC[C@@]12CC[C@@H](N3CCOCC3)C[C@H]1CCN(c1nccc(NC(C)C)n1)C2", "IC50 [µM]": "≥ 100"}
{"Structure (SMILES)": "CN(C)c1ccc(Nc2ncnc3sc4c(c23)CCCC4)cc1", "IC50 [µM]": "≥ 100"}
{"Structure (SMILES)": "COc1ccc(-c2cc(=O)oc3cc(OCC(N)=O)ccc23)cc1", "IC50 [µM]": "≥ 100"}
{"note": "Excerpt of the above (block 1):"}
{"target": "TESK1 (Homo sapiens, UniProt Q15569)", "read-out": "cell-free assay", "remaining binding": "90%"}
{"target": "CSNK1G3 (Homo sapiens, UniProt Q9Y6M4)", "read-out": "cell-free assay", "remaining binding": "95%"}
{"target": "ALK (Homo sapiens, UniProt Q9UM73, L1196M)", "read-out": "cell-free assay", "remaining binding": "90%"}
{"target": "PRKAA1 (Homo sapiens, UniProt Q13131)", "read-out": "cell-free assay", "remaining binding": "95%"}
{"target": "MAP3K20 (Homo sapiens, UniProt Q9NYL2)", "read-out": "cell-free assay", "remaining binding": "80%"}
{"target": "CHEK2 (Homo sapiens, UniProt O96017)", "read-out": "cell-free assay", "remaining binding": "100%"}
{"target": "FRK (Homo sapiens, UniProt P42685)", "read-out": "cell-free assay", "remaining binding": "90%"}
{"target": "COQ8A (Homo sapiens, UniProt Q8NI60)", "read-out": "cell-free assay", "remaining binding": "100%"}
{"target": "TLK2 (Homo sapiens, UniProt Q86UE8)", "read-out": "cell-free assay", "remaining binding": "100%"}
{"target": "ULK2 (Homo sapiens, UniProt Q8IYT8)", "read-out": "cell-free assay", "remaining binding": "100%"}
